Published values of several laboratories.
Every numbered part comes from another study and shows a few of its results, in no order. “And” joins repeats or separate records; there may be more than shown. Positions count from the first letter of the parent shown.

Series 1
Target: Eukaryotic initiation factor 4A-I (EIF4A1, Homo sapiens, UniProt P60842, residues 1-406, full length assumed)
Sequence of UniProt P60842 (whole entry, looked up): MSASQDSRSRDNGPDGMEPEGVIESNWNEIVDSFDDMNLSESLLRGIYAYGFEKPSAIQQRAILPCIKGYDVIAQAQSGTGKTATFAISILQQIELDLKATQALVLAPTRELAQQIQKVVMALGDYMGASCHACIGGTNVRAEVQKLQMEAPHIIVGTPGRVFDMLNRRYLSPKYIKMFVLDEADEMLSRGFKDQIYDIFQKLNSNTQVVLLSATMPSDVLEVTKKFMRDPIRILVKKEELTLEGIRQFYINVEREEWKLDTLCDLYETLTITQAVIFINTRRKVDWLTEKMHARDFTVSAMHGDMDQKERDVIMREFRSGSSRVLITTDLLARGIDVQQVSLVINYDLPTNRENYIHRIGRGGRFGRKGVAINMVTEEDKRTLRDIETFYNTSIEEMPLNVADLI
Technique: RNA Bind-n-Seq
Form: RNA
Sample: in vitro
Concentration: 90 pmol
Setting: 4-mer, random 30-nt RNA, single round
With: 3 µM iPr-DMDA-PatA, 2 mM ADP, 2 mM phosphate
Baseline: input library
Reading: higher = stronger binding
Strand	4-mer enrichment
GCUG	0.726 fold
AGUG	0.96 fold
UGUU	0.973 fold
CCCG	0.876 fold
CUUU	0.979 fold
UUAA	1.36 fold
UGGC	0.703 fold
UCCC	0.997 fold

Series 2
Target: CCNE2, cyclin fold, Cln2 fusion (human)
Technique: yeast growth competition, sequencing
Sample: yeast
Setting: strong parent motif
Baseline: not given
Reading: higher = stronger binding
Parent: viral docking peptide; KGVKRKLFAEDSS
Change	normalised enrichment score
F8E	0.311
K4T	3
K4V	6.82
A9L	6.3
R5W	0.196
R5H	0.38
F8K	0.569
E10I	5
A9E	6.71
S12Q	6.27
D11C	6.06
G2I	4.48
K4Q	3.84
D11Q	5.77
S12W	6.75
A9T	6.74
L7H	0.229
V3C	4.58
E10M	5.68
L7N	0.349
L7D	0.156
A9K	5.52
S12C	7.04
D11Y	6.8
D11K	5.22

Series 3
Target: Ras GTPase-activating protein-binding protein 1, RRM domain (G3BP1, Homo sapiens, UniProt Q13283)
Sequence of UniProt Q13283 (whole entry, looked up): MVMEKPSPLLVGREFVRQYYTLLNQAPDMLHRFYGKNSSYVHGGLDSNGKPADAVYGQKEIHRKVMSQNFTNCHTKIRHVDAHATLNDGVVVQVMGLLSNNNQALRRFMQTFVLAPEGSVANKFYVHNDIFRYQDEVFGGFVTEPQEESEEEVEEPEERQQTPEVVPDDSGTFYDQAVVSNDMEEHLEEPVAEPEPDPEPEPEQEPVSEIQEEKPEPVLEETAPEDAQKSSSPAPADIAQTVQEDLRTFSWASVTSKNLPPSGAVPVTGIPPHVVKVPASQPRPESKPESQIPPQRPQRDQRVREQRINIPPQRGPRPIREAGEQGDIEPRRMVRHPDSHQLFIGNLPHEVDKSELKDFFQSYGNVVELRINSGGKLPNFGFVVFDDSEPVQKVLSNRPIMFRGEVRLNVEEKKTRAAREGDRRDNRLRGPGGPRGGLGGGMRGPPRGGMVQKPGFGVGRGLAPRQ
Technique: RNA Bind-n-Seq
Form: RNA
Sample: in vitro
Concentration: 1 µM
Setting: whole 134-nt RNA, ends assumed
With: 150 mM KCl
Baseline: input library
Reading: higher = stronger binding
Constant ends, left off below: GGGAGUUCUACAGUCCGACGAUC … UGGAAUUCUCGGGUGUCAAGG
Strand	log2 enrichment
GCAGGAAGUAAAAACAAAUGGAAAUGCUUCGGAUAAUGGCAGGGGUGGGGGUUGCUAAGGAAAGGGUGGGAUGGGAGUGGGUAAAGAGUU	0.981
UCCUGUGCUACACAUCGUAUGUACCGAAUCGGGGUUUGGGGAAAGGGGUUUUUUUGGGGAAAGUAUUAUGUUACGCCGUUCGGAUCUGCA	1.1
CAAGUCCUGUGCUACACAUCGUAUGUACCGAAUCGGGGAAAGGAAAGGGAAAGGGGAAAGUAUUAUGUUACGCCGUUCGGAUCUGCACUU	0.0865
GUCCUGUGCUACACAUCGUAUGUACCGAAUCGGGGAAAAAAAGGGGUUUGGGGUGGGGAAAGUAUUAUGUUACGCCGUUCGGAUCUGCAC	1.21
AGUCCUGUGCUACACAUCGUAUGUACCGAAUCGGGUUUUGGGUUUUGGGUUUUGGGGAAAGUAUUAUGUUACGCCGUUCGGAUCUGCACU	0.796
UCAAGUCCUGUGCUACACAUCGUAUGUACCGAAUCGGGAAGGGGAAGGGAAGGGAAAGUAUUAUGUUACGCCGUUCGGAUCUGCACUUCC	1.12
GAGAGCGAGGUGGCUUCAAUAAGCCUGGUGGUAAGUUUUUGAGUAUUACCAUAGAUAGUGUUUAAAAAAAAAUGCAGUCAGUUUUUAGAA	-0.0529
GUCCUGUGCUACACAUCGUAUGUACCGAAUCAAACCCCCAAAUUUAAACCCCCCCAAAAAAGUAUUAUGUUACGCCGUUCGGAUCUGCAC	-0.182

Series 4
Target: TAR DNA-binding protein 43, full length, His tag (TARDBP, Homo sapiens, UniProt Q13148, residues 1-414)
Technique: RNA Bind-n-Seq
Form: RNA
Sample: in vitro
Concentration: 20 nM
Setting: 6-mer, flanks averaged, single round
With: 150 mM LiCl
Baseline: input library
Reading: higher = stronger binding
Strand	6-mer enrichment (R)
GGCUCA	0.89
UACAUG	0.901
UUUGAC	0.974
AGAGGA	1
GGCCGA	0.975
GUCCGG	0.991
CCUGGA	0.885
GGUCAU	0.903

Series 5
Target: HLA class I histocompatibility antigen, A alpha chain, allele A*80:01 (Homo sapiens, UniProt P04439)
Observed: peptide-MHC binding
Form: peptide
Concentration: concentration not given
Sequence	binding
NTDEIPELI	inactive
GMWCVLASR	inactive
TEFFMSRKL	inactive

Other studies, line by line
SMILES	organism	technique	host	dose	time	quantity	value
CNC(=O)c1ccc(-c2cnn3ccc(C(=O)N(C)c4ccc(Cl)c(C(=O)OC)c4)cc23)cc1	Cryptosporidium parvum	qPCR	neonatal calves	dose not given	day 5 post-treatment	fecal oocyst count	129 oocysts/g feces and 2220 oocysts/g feces and 225 oocysts/g feces and 61 oocysts/g feces and 218 oocysts/g feces and 10800 oocysts/g feces and 5710 oocysts/g feces
